Assay results of several laboratories.
Each numbered part is a random draw from the data of one study; scales do not carry over between parts.

Block 1
Target: Sal-like protein 4, full length isoform B (SALL4, Homo sapiens, UniProt Q9UJQ4-2, residues 1-616)
Method: universal PBM
Form: double-stranded DNA, one strand shown
Medium: in vitro
Tested at: not given
Notes: 8-mer, flanks averaged, mean of replicates
Reading: higher = stronger binding
Endpoint: E-score
Residues (chain): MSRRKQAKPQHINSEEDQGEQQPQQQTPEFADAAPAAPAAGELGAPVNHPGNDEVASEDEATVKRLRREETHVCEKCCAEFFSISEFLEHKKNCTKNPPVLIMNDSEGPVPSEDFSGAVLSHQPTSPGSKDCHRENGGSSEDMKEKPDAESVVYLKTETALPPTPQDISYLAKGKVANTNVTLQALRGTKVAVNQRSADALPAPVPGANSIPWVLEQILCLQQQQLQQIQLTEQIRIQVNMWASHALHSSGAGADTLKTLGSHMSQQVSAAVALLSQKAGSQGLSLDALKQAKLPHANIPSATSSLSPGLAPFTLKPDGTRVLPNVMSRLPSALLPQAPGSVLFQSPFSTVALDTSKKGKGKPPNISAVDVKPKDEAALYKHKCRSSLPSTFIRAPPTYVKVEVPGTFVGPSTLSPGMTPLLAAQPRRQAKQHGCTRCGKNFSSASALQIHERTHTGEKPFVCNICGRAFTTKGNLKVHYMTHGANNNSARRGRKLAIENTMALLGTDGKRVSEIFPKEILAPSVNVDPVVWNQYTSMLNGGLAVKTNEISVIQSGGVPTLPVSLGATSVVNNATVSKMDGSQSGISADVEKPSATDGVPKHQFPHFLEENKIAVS
ATTAGCCC: 0.00303
AACGCTAT: 0.0603
CAAGTTAA: 0.139
CCCGTTAA: -0.123
CGTAATAG: 0.183
CCGAGGTA: -0.247
ACACATGC: -0.0308
ACAGTGGG: -0.227
ACGCCTGG: -0.277
AGAAGACT: 0.0132
CACACCCG: -0.166
GCCGACGC: -0.225
AAAGCCAA: -0.00324
CCTGCGTA: -0.0423
CGTCTTAG: -0.0306
ACATTTCG: 0.0756
ACGTAGTC: 0.0271
AGGTCTAA: 0.055
AGAGCAAA: 0.16
AGTAATGG: 0.134
AGGATCCC: -0.182
CCGCTTAG: -0.331
ATACAAAC: 0.307
CACCAGTA: 0.1
CAACCCAG: -0.205

Block 2
Target: PABPC1L2, full length, GST fusion (mouse, UniProt A0ABA7IW68)
Method: RNAcompete
Form: RNA
Medium: in vitro
Tested at: 20 nM
Notes: 7-mer, probes averaged, single round
Baseline: mean of 7-mers
Reading: higher = stronger binding
Endpoint: 7-mer Z-score
Residues (chain): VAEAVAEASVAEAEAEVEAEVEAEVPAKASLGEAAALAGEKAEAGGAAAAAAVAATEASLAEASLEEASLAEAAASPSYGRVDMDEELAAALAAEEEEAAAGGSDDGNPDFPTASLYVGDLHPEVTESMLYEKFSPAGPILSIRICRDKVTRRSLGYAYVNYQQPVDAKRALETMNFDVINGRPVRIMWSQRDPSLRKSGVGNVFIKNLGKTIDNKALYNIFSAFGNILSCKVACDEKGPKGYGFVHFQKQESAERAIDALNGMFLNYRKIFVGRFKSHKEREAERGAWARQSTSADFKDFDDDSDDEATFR
CUGGCUU: -0.251
CCGGAAG: -0.0337
UCAGUUC: -0.427
ACUCCGA: -0.229
UGCUGAC: -0.11
CAAGACU: 0.0424
CAUGUAC: -0.126
AGAAUCA: -0.012
UAUGCGU: -0.286
GACUCGU: -0.508
GCUUUAC: -0.22
AACCUUG: -0.208
UUUAGGC: 0.148
AAGGAUC: 0.126
ACAGGUC: -0.0736
GCGUGGC: 0.00798
UCGAAUC: -0.173
UGAGAUU: -0.112
GGACAGA: 0.28
AGAACGC: -0.079
AACACGG: 0.622
AAAAUCU: 3.47
GAACGCG: -0.155
UAUGCAG: 0.0116
ACAACGU: -0.0518

Block 3
Target: Ras GTPase-activating protein-binding protein 1, full length (G3BP1, Homo sapiens, UniProt Q13283)
Chain of UniProt Q13283 (whole entry, looked up): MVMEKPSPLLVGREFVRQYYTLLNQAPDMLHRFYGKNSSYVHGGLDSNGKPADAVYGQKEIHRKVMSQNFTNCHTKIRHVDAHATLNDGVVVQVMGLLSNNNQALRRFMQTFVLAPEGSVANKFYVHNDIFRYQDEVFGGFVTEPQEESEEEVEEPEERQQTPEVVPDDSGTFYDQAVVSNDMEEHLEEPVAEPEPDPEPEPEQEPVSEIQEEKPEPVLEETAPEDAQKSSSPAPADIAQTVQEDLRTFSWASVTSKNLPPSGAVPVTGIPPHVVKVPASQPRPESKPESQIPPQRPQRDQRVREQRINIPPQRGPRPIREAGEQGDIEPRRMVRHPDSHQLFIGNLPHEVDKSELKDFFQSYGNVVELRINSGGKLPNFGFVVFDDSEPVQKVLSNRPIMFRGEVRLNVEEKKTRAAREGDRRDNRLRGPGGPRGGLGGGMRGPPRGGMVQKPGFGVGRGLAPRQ
Method: RNA Bind-n-Seq
Form: RNA
Medium: in vitro
Tested at: 200 nM
Notes: whole 134-nt RNA, ends assumed
With: 150 mM LiCl
Baseline: input library
Reading: higher = stronger binding
Endpoint: log2 enrichment
All molecules: 7-deaza-guanosine replaces G
Constant ends, left off below: GGGAGUUCUACAGUCCGACGAUC … UGGAAUUCUCGGGUGUCAAGG
CCUGUGCUACACAUCGUAUGUACCGAAUCGGGGAAAAAAAGGGGAGGGGUUUUUUUGGGGAAAGUAUUAUGUUACGCCGUUCGGAUCUGC: 0.614
UGGGAGGUGGAUUUUGUUUAUUUUUUUAGCUCAUUUCCAGGAGUGGGAAUUUUUUUUUAAUAUGUGUCAUGAAUAAAGUUGUUUUUGAAA: -0.525
GCAGGAAGUAAAAACAAAUGGACAUGCUUCGGAUAGUGGCAGGGGUGGGGGUUGCUAAGGAAAGGGUGGGAUGGGAGUGGGUAAAGAGUU: 0.265
UGGCCCUGGUGGCAUGCGGGGAGGAAGAGGUGGCCUCAUGAAUCGUGGUGGUCCCGGUGGAAUGUUCAGAGGUGGCCGUGGUGGAGACAG: 0.0307
ACCAUGCAGGUGGGCAUAUUUGGGAAGUGGGGCAAGGGGGGGAUAGGGAGGGGGGUAACACUUUGGGAACAGGUGGUCCCAGGUCGUUUC: 0.143
CUCAAGUCCUGUGCUACACAUCGUAUGUACCGAAUCGGGGUUGGGUUGGUUGGAAAGUAUUAUGUUACGCCGUUCGGAUCUGCACUUCCA: 0.352
UGGCCCUGGUGGCAUGCGGGGAGGAAGAGGUGGCCUCAUGGAUCGUGGUGGUCCCGGUGGAAUGUUCAGAGGUGGCCGUGGUGGACACAG: 0.00917
CUCAAGUCCUGUGCUACACAUCGUAUGUACCGAAUCGGAGGUGGAAAAAAAGGAAAGUAUUAUGUUACGCCGUUCGGAUCUGCACUUCCA: -0.747

Block 4
Target: Histone acetyltransferase KAT6A, winged helix 1, GST fusion (KAT6A, Homo sapiens, UniProt Q92794, residues 1-85)
Method: protein binding microarray
Form: double-stranded DNA, one strand shown
Medium: in vitro
Tested at: not given
Notes: 8-mer, flanks averaged, mean of 2 arrays, mostly near background
Baseline: not given
Reading: higher = stronger binding
Endpoint: E-score
Target sequence (chain): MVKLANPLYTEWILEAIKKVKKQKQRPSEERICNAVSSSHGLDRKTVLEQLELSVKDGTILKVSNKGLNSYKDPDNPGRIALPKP
AGTTTCTC: -0.137
CCCGGGCA: 0.309
CCATGCGC: 0.231
CGTGATCC: -0.00732
GCCGATAA: 0.189
TAGTGGCA: -0.119
GCGTAGGA: 0.204
ATTGCATG: -0.202
GTCGTTCA: -0.072
ATCAATTC: -0.0997
ATTATCCA: -0.133
ACCAGCTA: -0.309
ATTTGATC: -0.194
CGATTCTC: 0.00653
ACATTGCA: -0.119
ACGAGCAC: -0.166
AACCTTGG: -0.0916
ACCGTACC: 0.186
TCCAGACA: -0.268
AACGAGAA: -0.223
CTAGGAAG: -0.166

Block 5
Target: RNA binding protein fox-1 homolog 2, RRM domain, GST-SBP tag (RBFOX2, Homo sapiens, UniProt O43251-10, residues 100-194)
Method: RNA Bind-n-Seq
Form: RNA
Medium: in vitro
Tested at: 365 nM
Notes: natural RNA segment, single round, ends assumed
Baseline: no-protein control
Reading: higher = stronger binding
Endpoint: RBNS enrichment (R)
Constant ends, left off below: GGGAGUUCUACAGUCCGACGAUC … UGGAAUUCUCGGGUGCCAA
Target sequence (chain): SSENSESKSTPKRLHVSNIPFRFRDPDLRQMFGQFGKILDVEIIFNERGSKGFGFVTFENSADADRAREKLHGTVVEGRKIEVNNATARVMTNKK
GAAAAAAAUCAGUUCUGUCUUUGUGGGUUGCUCUACUAUGGAGAUCAACAGUUACUGUGACUGAGUCGGCCCAUUCUGUUUAGAAAUAUAUUUUAAAUGUUUAGUAAUUG: 0.29
GUUCUGUGGGGCACUGGGUGAUACUCAGUUUCUUGUUCCUGGCCGUGGAGAGGGGCCUGGGGCACUGGUUCCGGCUGUGUCUGGUGGUCUGGCUGCGGGGAAGGGGCAAG: 0.269
UGACAUGUAUUGGGCCACUAGCAGGGAUUGAAAACAUUUUAAAAGAAAUCCUUUUUCUUAGGAGUAAAAGCUGGUAAAAGGGGUGACUUCCUGGUUCUGAUCAAAACCAG: 0.847
UACUGAUGGUACCAAAGAAUCAAAGACCAAGGAUGUCAAGACAAAUAUGAAUCUCAUUGAAAUAAAAAAUGCCUUAAAGAAGCAGAUAUACAAGGACAUAUAUAGAGCUC: 0.436
AUGCUCCCCUGAGCUAUAACCCCAGAAACUCUGCACUUUAUCAAGAAAGGACCCCCUCCUUAUGGAUUGCCUUGGCUUUGACCCUGAGCUAAGGCUGGCCCUAUUCCAUC: 0.963
UUAUCAUUGCUUAACUUCAUCUUAAUGAAAUGAAACUUUGUAACUUAUUGUAGUUAGAAAUUGUAACUUUGAUAUCGAAUCUCUUGCCUUCAACAAGCACACUGACAGAG: 0.255
AUAGACACCCCGUCUUAAGCACCAGCUCCUCUUGGGUGCCCCCAGAGCCCCUGCAACUGUUAUCCACAUACAACAGGGAUAUCGGACUGCUUUCUUCUUCCGGCUGGUAC: 0.263
AACUACAUUCCAGAUUUAAAGAAAUGAAAGGAUACCAUUAGUGUGUAUAACAGAUUAUUGUUCAUACUUGUAAAGCAUCUUAUGUCAUUGAGAAUAUAAAGAACAGUGCC: 0.638

Excerpt of the above (block 2):
AACACGG: 0.622
UAUGCGU: -0.286
CAUGUAC: -0.126
GCUUUAC: -0.22
GCGUGGC: 0.00798
UAUGCAG: 0.0116
UCGAAUC: -0.173
GGACAGA: 0.28
ACUCCGA: -0.229
CAAGACU: 0.0424
AACCUUG: -0.208
